Results gathered from unrelated publications.
Numbered parts are unrelated; each lists some results of a single study. Substitutions count along the parent as printed.

Series 1
Target: Interferon regulatory factor 5, full length, phosphomimetic (IRF5, Homo sapiens, UniProt Q13568-2, residues 1-514, K96S/S451D/S453D/S456D/S462D)
Method: protein-binding microarray
Molecule type: double-stranded DNA, one strand shown
Matrix: in vitro
Concentration: 250 nM
Notes: 60-bp whole probe
With: salmon DNA 0.4 mg/ml
Relative to: random background probes
Direction: higher = stronger binding
Endpoint: log fluorescence
All sequences stand within: GCCTAGCAC … GTCTTGATTCGCTTGACGCTGCTG
GACGGTTCCCTTTTCTTGACGTGCTAG: 0.361 z-score
TCAAAAATCCCATTAAAACTGTGCTAG: 0.331 z-score
AGCAGAAAGTGAAATACCCTCGTGCTA: 2.29 z-score
TTAGGTCTCGGACTGGGTTAGTGCTAG: -0.171 z-score
TCATTTTTAATGAATGAAACTGTGCTA: 1.21 z-score
CTGCTCCTCTTTTTTTGGTAGTGCTAG: 0.429 z-score
TTAGGCCTGGGGTTTCGGTTAGTGCTA: 5.8 z-score
TTAGATCTCAGTCTCGCTTAGTGCTAG: 0.295 z-score

Series 2
Target: Phosphate system positive regulatory protein PHO4, full length, GST-tagged (PHO4, Saccharomyces cerevisiae, UniProt P07270, residues 1-312)
Method: competition protein-binding microarray
Molecule type: double-stranded DNA, one strand shown
Matrix: in vitro
Concentration: 2 µM
Notes: whole 60-bp probe, lowest competitor level
With: Cbf1 competitor, 0.05 µM
Direction: higher = stronger binding
Endpoint: fluorescence intensity
Residues (chain): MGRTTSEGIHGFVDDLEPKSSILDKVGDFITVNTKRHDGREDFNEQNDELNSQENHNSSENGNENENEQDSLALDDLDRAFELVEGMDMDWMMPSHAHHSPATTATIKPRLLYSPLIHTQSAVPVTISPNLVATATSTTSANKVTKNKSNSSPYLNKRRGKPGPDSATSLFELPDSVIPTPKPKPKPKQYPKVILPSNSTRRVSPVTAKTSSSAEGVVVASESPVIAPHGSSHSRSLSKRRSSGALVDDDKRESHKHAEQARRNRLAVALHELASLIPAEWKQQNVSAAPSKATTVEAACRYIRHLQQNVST
GAGACGAATGAAAAGCACGTGAAGTAACAAACTATTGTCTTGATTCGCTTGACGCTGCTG: 14800 a.u.
CTTTCCCGATCTTGTCGAGTGGGTGTAGCACATTTGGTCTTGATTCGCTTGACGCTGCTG: 4720 a.u.
CATACCCAACCTTGATCTGTGGGTGAAGATATTTGTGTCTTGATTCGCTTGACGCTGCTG: 4220 a.u.
ATCTTCTGGCCGAGTCACGGGCCAAGCGTAAGGGTGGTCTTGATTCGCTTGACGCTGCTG: 7490 a.u.
CATTGCGAGGGTACATCCGTGCAATATTTCTGAAAAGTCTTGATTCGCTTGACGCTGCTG: 5040 a.u.
CAATGAAAGTGAAAGCACGTGTCGGATTGTCAACAAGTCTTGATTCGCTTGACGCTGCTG: 19700 a.u.
GACAGGAACTGCTGTCATATGAAAACCTAAAAATGTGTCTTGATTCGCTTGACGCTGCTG: 3390 a.u.
CGTCCTAGTGATTGCGAGGTGGGTGCCATGAGGAAGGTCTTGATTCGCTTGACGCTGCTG: 8120 a.u.

Series 3
Target: HLA class I histocompatibility antigen, A alpha chain, allele A*80:01 (Homo sapiens, UniProt P04439)
Observed: peptide-MHC binding
Molecule type: peptide
Concentration: concentration not given
Endpoint: binding
RAYAAMHLW: inactive
ASLLRRWPK: inactive
EISGSSARY: inactive
HLSGWELAK: inactive

Series 4
Target: CCND2, cyclin fold, Cln2 fusion (human)
Method: yeast growth competition, sequencing
Matrix: yeast
Notes: strong parent motif
Relative to: not given
Direction: higher = stronger binding
Endpoint: normalised enrichment score
Starting sequence: viral docking peptide; YKVKRRLVFGADD
A11Q: 1.02
F9E: 0.33
R5T: 0.263
R5M: -0.226
R6W: -0.273
V8D: 2.97
V8C: 1.19
K4F: -0.389
A11D: 2.48
R5H: 0.285
F9I: 0.364
A11V: 1.21
R6I: 0.274
V8M: 0.764
V3G: 0.371

A few entries again (series 1):
TCATTTTTAATGAATGAAACTGTGCTA: 1.21 z-score
CTGCTCCTCTTTTTTTGGTAGTGCTAG: 0.429 z-score
TTAGGCCTGGGGTTTCGGTTAGTGCTA: 5.8 z-score
